Assay results pooled from the literature.
Each line is one published result; not all experiments were run side by side. ± marks the error that the study gave.

O=C(O)CC[C@H](NC(=O)N[C@@H](CCCCNC(=O)CCCCC[C@H](NC(=O)CCS[C@@H]1O[C@H](CO)[C@H](O)[C@H](O)[C@H]1O)C(=O)NCCCC[C@@H](NC(=O)[C@@H](Cc1ccccc1)NC(=O)[C@@H](Cc1ccc(O)c(I)c1)NC(=O)CCC(C(=O)O)N1CCN(CC(=O)O)CCN(CC(=O)O)CCN(CC(=O)O)CC1)C(=O)O)C(=O)O)C(=O)O (stereo partly drawn) [gallium-68 labelled] — tumour uptake (CB-17 SCID mice; 1 h post injection, biodistribution): 3.86 ± 1.32 %ID/g
N=C(N)NCCC[C@@H]1NC(=O)[C@H](CCCCNC(=O)CC[C@H](NC(=O)CC[C@H](NC(=O)CN2CCN(CC(=O)O)CCN(CC(=O)O)CCN(CC(=O)O)CC2)C(=O)N[C@@H](CCC(=O)NCCCC[C@@H]2NC(=O)[C@@H](Cc3ccccc3)NC(=O)[C@H](CC(=O)O)NC(=O)CNC(=O)[C@H](CCCNC(=N)N)NC2=O)C(=O)NCCCC[C@@H]2NC(=O)[C@@H](Cc3ccccc3)NC(=O)[C@H](CC(=O)O)NC(=O)CNC(=O)[C@H](CCCNC(=N)N)NC2=O)C(=O)NCCCC[C@@H]2NC(=O)[C@@H](Cc3ccccc3)NC(=O)[C@H](CC(=O)O)NC(=O)CNC(=O)[C@H](CCCNC(=N)N)NC2=O)NC(=O)[C@@H](Cc2ccccc2)NC(=O)[C@H](CC(=O)O)NC(=O)CNC1=O [indium-111 labelled] — tissue uptake (female athymic nu/nu mice, lungs; intravenous, 72 h): 0.62 ± 0.36 %ID/g
CC(C)[C@H](NC(=O)[C@@H](NC(=O)COCCOCCNC(=O)COCCOCCNC(=O)CN1CCN(CC(=O)O)CCN(CC(=O)O)CCN(CC(=O)O)CC1)[C@@H](C)O)C(=O)N[C@@H](CCCNC(=N)N)C(=O)N[C@H](C(=O)N[C@@H](CO)C(=O)N[C@@H](C)C(=O)N[C@@H](CC(=O)O)C(=O)O)[C@@H](C)O [copper-64 labelled] — tumour tracer uptake (PET; male nude mice, LNCaP xenograft; iv, 22 h): 3210 ± 1510 Bq/mL
N=C(N)NCCC[C@@H]1NC(=O)[C@H](CCCCNC(=O)CNC(=O)CNC(=O)CNC(=O)CC[C@H](NC(=O)CNC(=O)CNC(=O)CNC(=O)CN2CCN(CC(=O)O)CCN(CC(=O)O)CCN(CC(=O)O)CC2)C(=O)NCC(=O)NCC(=O)NCC(=O)NCCCC[C@@H]2NC(=O)[C@@H](Cc3ccccc3)NC(=O)[C@H](CC(=O)O)NC(=O)CNC(=O)[C@H](CCCNC(=N)N)NC2=O)NC(=O)[C@@H](Cc2ccccc2)NC(=O)[C@H](CC(=O)O)NC(=O)CNC1=O [indium-111 labelled] — tissue uptake (female athymic nu/nu mice, intestine; intravenous, 0.5 h): 4.83 ± 1.15 %ID/g
CCCC[C@H](NC(=O)CCCCCCCNC(=O)CN1CCN(CC(=O)O)CCN(CC(=O)O)CC1)C(=O)N[C@H]1CC(=O)NCCCC[C@@H](C(N)=O)NC(=O)[C@H](Cc2c[nH]c3ccccc23)NC(=O)[C@H](CCCNC(=N)N)NC(=O)[C@@H](Cc2ccccc2)NC(=O)[C@H](Cc2c[nH]cn2)NC1=O [copper-64 labelled] — tissue uptake (C57 mice, muscle; intravenous, 0.37 MBq, 0.5 h): 0.7 ± 0.18 %ID/g
N=C(N)NCCC[C@@H]1NC(=O)[C@H](CCCCNC(=O)CNC(=O)CNC(=O)CNC(=O)CC[C@H](NC(=O)CNC(=O)CNC(=O)CNC(=O)CC[C@H](NC(=O)CN2CCN(CC(=O)O)CCN(CC(=O)O)CCN(CC(=O)O)CC2)C(=O)NCC(=O)NCC(=O)NCC(=O)N[C@@H](CCC(=O)NCC(=O)NCC(=O)NCC(=O)NCCCC[C@@H]2NC(=O)[C@@H](Cc3ccccc3)NC(=O)[C@H](CC(=O)O)NC(=O)CNC(=O)[C@H](CCCNC(=N)N)NC2=O)C(=O)NCC(=O)NCC(=O)NCC(=O)NCCCC[C@@H]2NC(=O)[C@@H](Cc3ccccc3)NC(=O)[C@H](CC(=O)O)NC(=O)CNC(=O)[C@H](CCCNC(=N)N)NC2=O)C(=O)NCC(=O)NCC(=O)NCC(=O)NCCCC[C@@H]2NC(=O)[C@@H](Cc3ccccc3)NC(=O)[C@H](CC(=O)O)NC(=O)CNC(=O)[C@H](CCCNC(=N)N)NC2=O)NC(=O)[C@@H](Cc2ccccc2)NC(=O)[C@H](CC(=O)O)NC(=O)CNC1=O [indium-111 labelled] — tissue uptake (female athymic nu/nu mice, brain; intravenous, 1 h): 0.14 ± 0.03 %ID/g
CC(C)CC(CC(C)C)NC(=O)[C@H](Cc1cnc[nH]1)NC(=O)CNC(=O)[C@@H](NC(=O)[C@H](C)NC(=O)[C@H](Cc1c[nH]c2ccccc12)NC(=O)[C@H](CCC(N)=O)NC(=O)[C@@H](Cc1ccccc1)NC(=O)COCC(=O)Nc1ccc(CNC(=O)CN2CCN(CC(=O)O)CCN(CC(=O)O)CCN(CC(=O)O)CC2)cc1)C(C)C [lutetium-177 labelled] — tumour uptake per volume (SPECT/CT; NMRI-Foxn1 nu/nu mice, T47D xenograft; 4 MBq, 24 h post-injection, with: doxorubicin, two cycles; relative to: placebo): no effect
CC(C)C[C@H](NC(=O)C[C@H](O)[C@H](CC(C)C)NC(=O)[C@H](Cc1c[nH]cn1)NC(=O)CNC(=O)[C@@H](NC(=O)[C@H](C)NC(=O)[C@H](Cc1c[nH]c2ccccc12)NC(=O)[C@H](CCC(N)=O)NC(=O)[C@@H](Cc1ccccc1)NC(=O)CCOCCOCCOCCNC(=O)CN1CCN(CC(=O)O)CCN(CC(=O)O)CC1)C(C)C)C(N)=O [gallium-68 labelled] — mean tumour uptake (microPET imaging; nude mouse PC-3 xenograft, PC-3 tumour; intravenous, 3.7 MBq, 15 min): 2.99 ± 0.44 %ID/g
N=C(N)NCCC[C@@H]1NC(=O)[C@H](CCCCNC(=S)Nc2ccc(CC3CN(CC(=O)O)CCN(CC(=O)O)CCN(CC(=O)O)CCN3CC(=O)O)cc2)NC(=O)[C@@H](Cc2ccc(O)cc2)NC(=O)[C@H](CC(=O)O)NC(=O)CNC1=O (stereo partly drawn) [actinium-225 labelled] — tumour to blood ratio (U-87 MG tumour-bearing mice; 4 h): 95
CCCC[C@H](NC(=O)COCCOCCNC(=O)CN1CCN(CC(=O)O)CCN(CC(=O)O)CC1)C(=O)N[C@H]1CC(=O)NCCCC[C@@H](C(N)=O)NC(=O)[C@H](Cc2c[nH]c3ccccc23)NC(=O)[C@H](CCCNC(=N)N)NC(=O)[C@@H](Cc2ccccc2)NC(=O)[C@H](Cc2c[nH]cn2)NC1=O [copper-64 labelled] — tissue uptake (C57 mice, lung; intravenous, 0.37 MBq, 4 h): 0.62 ± 0.18 %ID/g
CC(C)C[C@H](NC(=O)[C@H](Cc1ccc(O)cc1)NC(=O)[C@@H](CCCNC(=N)N)NC(=O)[C@@H](CO)NC(=O)[C@H](Cc1ccccc1)NC(=O)[C@H](CC1CCCCC1)NC(=O)[C@H](CC(=O)O)NC(=O)CN1CCCN2CCN(CCCN(CC(=O)O)CC2)CC1)C(=O)N[C@@H](Cc1c[nH]c2ccccc12)C(=O)N[C@@H](CO)C(=O)O [copper-64 labelled] — tissue uptake (female NMRI nude mice, lung; 22 h p.i.): 2.9 ± 0.4 %ID/g
CSCC[C@H](NC(=O)[C@H](CC(C)C)NC(=O)[C@H](Cc1c[nH]cn1)NC(=O)CNC(=O)[C@@H](NC(=O)[C@H](C)NC(=O)[C@H](Cc1c[nH]c2ccccc12)NC(=O)[C@H](CCC(N)=O)NC(=O)CCOCCOCCOCCOCCNC(=O)CN1CCN(CC(=O)O)CCN(CC(=O)O)CCN(CC(=O)O)CC1)C(C)C)C(N)=O [indium-111 labelled] — tumour to kidney ratio change (Swiss nu/nu mice, PC-3 xenograft; intravenous, 10 pmol, 1 h to 24 h post injection): 2.1 fold
